Results collected from several papers.
A part holds a random share of what one study measured. “And” joins repeats or separate records; there may be more than shown.
Sequence of UniProt P35968 (whole entry, looked up): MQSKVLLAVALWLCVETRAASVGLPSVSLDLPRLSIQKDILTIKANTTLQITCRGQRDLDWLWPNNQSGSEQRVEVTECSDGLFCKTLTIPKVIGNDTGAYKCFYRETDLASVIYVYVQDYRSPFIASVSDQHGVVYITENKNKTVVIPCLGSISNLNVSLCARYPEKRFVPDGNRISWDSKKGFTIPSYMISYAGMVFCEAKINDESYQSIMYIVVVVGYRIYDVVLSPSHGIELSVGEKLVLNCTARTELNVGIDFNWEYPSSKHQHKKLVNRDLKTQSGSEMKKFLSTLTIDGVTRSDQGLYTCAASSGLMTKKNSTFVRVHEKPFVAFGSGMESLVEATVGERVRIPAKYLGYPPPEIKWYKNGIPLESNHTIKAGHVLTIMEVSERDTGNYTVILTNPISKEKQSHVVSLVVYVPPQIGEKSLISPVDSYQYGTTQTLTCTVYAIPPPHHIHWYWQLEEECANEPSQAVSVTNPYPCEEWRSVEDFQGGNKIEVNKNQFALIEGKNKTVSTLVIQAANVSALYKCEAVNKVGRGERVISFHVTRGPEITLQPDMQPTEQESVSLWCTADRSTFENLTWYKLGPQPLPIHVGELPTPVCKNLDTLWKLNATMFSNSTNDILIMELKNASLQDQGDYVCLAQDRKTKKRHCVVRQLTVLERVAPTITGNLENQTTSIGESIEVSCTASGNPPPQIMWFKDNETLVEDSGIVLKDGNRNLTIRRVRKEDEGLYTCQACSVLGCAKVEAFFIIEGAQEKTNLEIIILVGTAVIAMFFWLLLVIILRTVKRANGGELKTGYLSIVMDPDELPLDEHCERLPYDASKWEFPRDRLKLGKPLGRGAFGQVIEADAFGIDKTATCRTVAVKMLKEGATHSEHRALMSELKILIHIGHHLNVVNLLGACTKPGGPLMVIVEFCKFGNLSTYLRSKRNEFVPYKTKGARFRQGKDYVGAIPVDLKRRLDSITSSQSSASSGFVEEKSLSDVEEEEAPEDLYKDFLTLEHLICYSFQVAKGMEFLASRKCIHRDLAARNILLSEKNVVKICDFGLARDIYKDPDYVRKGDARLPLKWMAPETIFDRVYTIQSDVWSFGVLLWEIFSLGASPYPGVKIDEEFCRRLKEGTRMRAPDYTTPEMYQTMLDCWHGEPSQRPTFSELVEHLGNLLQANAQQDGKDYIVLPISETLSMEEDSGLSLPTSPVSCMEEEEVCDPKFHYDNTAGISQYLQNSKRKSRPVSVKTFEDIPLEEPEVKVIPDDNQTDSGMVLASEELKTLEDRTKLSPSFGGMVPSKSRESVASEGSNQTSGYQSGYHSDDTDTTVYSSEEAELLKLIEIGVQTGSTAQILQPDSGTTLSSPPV
Sequence of UniProt P07949 (whole entry, unmodified, looked up): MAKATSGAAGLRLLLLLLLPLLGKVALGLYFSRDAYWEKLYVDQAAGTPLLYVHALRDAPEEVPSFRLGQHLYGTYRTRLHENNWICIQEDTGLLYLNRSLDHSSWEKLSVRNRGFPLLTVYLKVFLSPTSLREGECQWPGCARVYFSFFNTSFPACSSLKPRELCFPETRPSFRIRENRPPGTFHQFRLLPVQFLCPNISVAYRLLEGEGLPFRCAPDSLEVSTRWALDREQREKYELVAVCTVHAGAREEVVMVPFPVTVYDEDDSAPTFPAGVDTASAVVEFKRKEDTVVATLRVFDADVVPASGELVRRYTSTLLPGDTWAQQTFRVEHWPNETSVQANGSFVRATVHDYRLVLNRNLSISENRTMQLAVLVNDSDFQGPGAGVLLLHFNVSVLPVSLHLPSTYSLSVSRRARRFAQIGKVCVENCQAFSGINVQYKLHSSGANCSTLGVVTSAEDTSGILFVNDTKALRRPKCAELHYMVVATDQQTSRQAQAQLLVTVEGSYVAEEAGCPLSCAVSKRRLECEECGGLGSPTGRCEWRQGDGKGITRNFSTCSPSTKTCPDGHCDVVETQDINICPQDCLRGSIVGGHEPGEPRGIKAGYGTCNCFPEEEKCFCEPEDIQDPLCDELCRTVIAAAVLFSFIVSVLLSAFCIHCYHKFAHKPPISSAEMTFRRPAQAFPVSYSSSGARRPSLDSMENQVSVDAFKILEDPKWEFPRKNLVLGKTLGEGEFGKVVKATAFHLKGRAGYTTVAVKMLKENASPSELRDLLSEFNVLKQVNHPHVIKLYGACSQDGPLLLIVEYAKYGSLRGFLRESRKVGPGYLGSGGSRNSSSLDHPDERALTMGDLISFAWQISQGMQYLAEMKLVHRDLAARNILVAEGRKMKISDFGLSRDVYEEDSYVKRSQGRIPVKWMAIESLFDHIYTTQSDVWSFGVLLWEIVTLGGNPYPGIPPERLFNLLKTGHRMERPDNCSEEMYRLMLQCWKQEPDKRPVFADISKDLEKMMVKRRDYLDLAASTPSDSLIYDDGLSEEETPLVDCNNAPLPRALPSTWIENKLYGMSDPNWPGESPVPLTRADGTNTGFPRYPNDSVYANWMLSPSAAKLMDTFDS
Sequence of UniProt O14976 (whole entry, looked up): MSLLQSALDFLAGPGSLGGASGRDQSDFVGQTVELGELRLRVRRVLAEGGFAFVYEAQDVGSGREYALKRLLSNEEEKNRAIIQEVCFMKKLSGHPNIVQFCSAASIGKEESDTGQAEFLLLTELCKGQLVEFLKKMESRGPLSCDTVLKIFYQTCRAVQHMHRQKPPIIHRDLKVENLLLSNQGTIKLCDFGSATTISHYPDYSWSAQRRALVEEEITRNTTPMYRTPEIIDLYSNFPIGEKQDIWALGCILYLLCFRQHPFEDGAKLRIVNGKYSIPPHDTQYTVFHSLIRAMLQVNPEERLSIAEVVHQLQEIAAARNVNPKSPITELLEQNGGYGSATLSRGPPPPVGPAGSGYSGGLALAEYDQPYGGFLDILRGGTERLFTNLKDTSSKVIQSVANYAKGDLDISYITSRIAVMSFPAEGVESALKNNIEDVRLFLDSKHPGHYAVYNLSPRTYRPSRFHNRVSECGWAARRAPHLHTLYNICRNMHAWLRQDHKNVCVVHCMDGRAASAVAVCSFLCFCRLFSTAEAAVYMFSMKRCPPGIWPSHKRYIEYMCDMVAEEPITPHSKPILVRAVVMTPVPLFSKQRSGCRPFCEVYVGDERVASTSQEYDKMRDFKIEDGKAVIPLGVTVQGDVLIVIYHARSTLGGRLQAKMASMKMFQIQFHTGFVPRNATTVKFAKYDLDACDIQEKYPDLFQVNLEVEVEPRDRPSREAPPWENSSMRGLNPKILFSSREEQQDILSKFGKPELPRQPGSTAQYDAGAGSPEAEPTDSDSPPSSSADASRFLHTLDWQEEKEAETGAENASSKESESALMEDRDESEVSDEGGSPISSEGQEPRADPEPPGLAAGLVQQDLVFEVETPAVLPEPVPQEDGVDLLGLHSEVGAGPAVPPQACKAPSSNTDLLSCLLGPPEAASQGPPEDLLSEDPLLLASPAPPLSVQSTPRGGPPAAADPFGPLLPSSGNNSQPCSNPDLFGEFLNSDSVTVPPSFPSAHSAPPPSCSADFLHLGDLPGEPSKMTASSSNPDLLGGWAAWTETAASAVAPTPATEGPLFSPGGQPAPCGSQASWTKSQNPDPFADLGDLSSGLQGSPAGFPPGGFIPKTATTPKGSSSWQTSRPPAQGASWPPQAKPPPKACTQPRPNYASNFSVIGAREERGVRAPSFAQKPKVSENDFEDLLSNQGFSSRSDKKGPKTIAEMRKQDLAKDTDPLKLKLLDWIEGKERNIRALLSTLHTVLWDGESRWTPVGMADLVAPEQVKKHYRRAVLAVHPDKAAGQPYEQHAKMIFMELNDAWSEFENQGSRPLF
Sequence of UniProt P27037 (whole entry, looked up): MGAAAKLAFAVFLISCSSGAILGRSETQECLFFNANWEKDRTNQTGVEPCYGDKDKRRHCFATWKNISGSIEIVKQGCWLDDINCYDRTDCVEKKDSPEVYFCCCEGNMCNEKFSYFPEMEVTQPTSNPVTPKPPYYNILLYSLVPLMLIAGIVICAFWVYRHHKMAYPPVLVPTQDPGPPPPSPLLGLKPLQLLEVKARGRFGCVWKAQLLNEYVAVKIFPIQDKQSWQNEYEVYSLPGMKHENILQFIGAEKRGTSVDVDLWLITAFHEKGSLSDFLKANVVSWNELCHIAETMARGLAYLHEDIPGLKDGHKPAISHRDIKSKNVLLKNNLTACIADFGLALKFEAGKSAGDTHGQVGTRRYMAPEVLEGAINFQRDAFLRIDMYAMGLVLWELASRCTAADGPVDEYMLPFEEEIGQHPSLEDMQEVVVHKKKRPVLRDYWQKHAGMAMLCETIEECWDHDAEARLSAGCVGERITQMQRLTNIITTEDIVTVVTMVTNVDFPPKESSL
Sequence of UniProt P52564 (whole entry, looked up): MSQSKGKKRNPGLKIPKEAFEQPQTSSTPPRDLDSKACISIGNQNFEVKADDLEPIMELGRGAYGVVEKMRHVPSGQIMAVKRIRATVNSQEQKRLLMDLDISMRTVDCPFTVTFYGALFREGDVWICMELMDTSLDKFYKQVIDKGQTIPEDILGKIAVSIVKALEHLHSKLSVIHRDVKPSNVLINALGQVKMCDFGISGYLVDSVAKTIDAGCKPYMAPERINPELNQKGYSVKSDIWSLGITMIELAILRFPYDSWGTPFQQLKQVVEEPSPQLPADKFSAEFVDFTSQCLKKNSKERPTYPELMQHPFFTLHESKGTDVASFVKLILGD

Sample 1 — cell line: mouse MPNST tumor cells; method: high-content immunofluorescence imaging; refers to: nuclear SOX9; concentration: 10 µM; time: 12 h; notes: mean of 2 replicates; relative to: DMSO control; reading: higher = more nuclear SOX9; measurement: nuclear SOX9 intensity
Compound = Nc1ncnc2c1ncn2C1CCCO1 (stereo not shown); value = 90.2 % of DMSO
Compound = C[C@]12CCC(=O)C=C1CC[C@@H]1[C@@H]2[C@@H](O)C[C@@]2(C)[C@H]1CC[C@]2(O)C(=O)CO; value = 64.7 % of DMSO
Compound = Cc1c(N)c(=O)n(-c2ccccc2)n1C; value = 103 % of DMSO
Compound = CC(C)(O)c1ccn2c(-c3ccc(F)c(-c4ccc(F)cc4C#N)c3)cnc2c1F; value = 150 % of DMSO
Compound = C#C[C@]1(O)CC[C@H]2[C@@H]3[C@H](C)CC4=C(CCC(=O)C4)[C@H]3CC[C@@]21C; value = 85.6 % of DMSO
Compound = CCOC(=O)C1=C(C)NC(C)=C(C(=O)OC)C1c1cccc([N+](=O)[O-])c1 (stereo not shown); value = 118 % of DMSO and 108 % of DMSO
Compound = Oc1c(I)cc(Cl)c2cccnc12; value = 92.4 % of DMSO
Compound = O=S(=O)(NCC1CC1)c1ccc(Nc2nccc(N3CCCc4cc(O)ccc43)n2)cc1; value = 306 % of DMSO

Sample 2 — read-out: cell-free assay; method: competition with immobilised ligand; concentration: 1 µM; measurement: remaining binding
SMILES: CO[C@H]1CC[C@H](CNc2ccc(S(=O)(=O)NC(=O)c3ccc(N4CCN(CC5=C(c6ccc(Cl)cc6)CC(C)(C)CC5)CC4)cc3Oc3cnc4[nH]ccc4c3)cc2[N+](=O)[O-])CC1
target = Activin receptor type-2A (ACVR2A, Homo sapiens, UniProt P27037); value = 91%
target = Cyclin-G-associated kinase (GAK, Homo sapiens, UniProt O14976); value = 99%
target = MAP kinase-interacting serine/threonine-protein kinase 1 (MKNK1, Homo sapiens, UniProt Q9BUB5); value = 90%
target = Dual specificity mitogen-activated protein kinase kinase 6 (MAP2K6, Homo sapiens, UniProt P52564); value = 84%
target = Proto-oncogene tyrosine-protein kinase receptor Ret (RET, Homo sapiens, UniProt P07949, M918T); value = 85%
target = Serine/threonine-protein kinase 38-like (STK38L, Homo sapiens, UniProt Q9Y2H1); value = 94%
target = Tyrosine-protein kinase ABL2 (ABL2, Homo sapiens, UniProt P42684); value = 81%
target = Vascular endothelial growth factor receptor 2 (KDR, Homo sapiens, UniProt P35968); value = 100%

Sample 3 — measurement: inhibition
Structure (SMILES): COc1cc(C(=O)N2CCC(N3CCN(C)CC3)CC2)ccc1Nc1ncc2c(n1)N(C)c1ccccc1C(=O)N2C
target or system = mouse CaMK1α; assay = probe labelling, KiNativ ATP probe; system = mouse brain lysate; conditions = 0.1 µM, LYS1 site LVAIkCIAK; value = -7.7%
target or system = human PBMC; assay = probe labeling, inhibitor, KiNativ profiling, refers to: DIkSQNIFLTK; system = cell lysate; conditions = concentration not given, LYS2 site, together with: ATP acyl-phosphate probe; value = -1.1%
target or system = human PBMC; assay = probe labeling, inhibitor, KiNativ profiling; system = cell lysate; conditions = concentration not given, LYS1 site, together with: ATP acyl-phosphate probe 0.1 µM; value = 8.5%
target or system = mouse IKKε and TBK1; assay = probe labelling, KiNativ ATP probe; system = mouse brain lysate; conditions = 0.1 µM, LYS2 site DIkPGNIMR; value = -7.2%

Sample 4 — mode: agonist; measurement: EC50
Target: Beta-1 adrenergic receptor (ADRB1, Homo sapiens, UniProt P08588)
Sequence of UniProt P08588 (whole entry, looked up): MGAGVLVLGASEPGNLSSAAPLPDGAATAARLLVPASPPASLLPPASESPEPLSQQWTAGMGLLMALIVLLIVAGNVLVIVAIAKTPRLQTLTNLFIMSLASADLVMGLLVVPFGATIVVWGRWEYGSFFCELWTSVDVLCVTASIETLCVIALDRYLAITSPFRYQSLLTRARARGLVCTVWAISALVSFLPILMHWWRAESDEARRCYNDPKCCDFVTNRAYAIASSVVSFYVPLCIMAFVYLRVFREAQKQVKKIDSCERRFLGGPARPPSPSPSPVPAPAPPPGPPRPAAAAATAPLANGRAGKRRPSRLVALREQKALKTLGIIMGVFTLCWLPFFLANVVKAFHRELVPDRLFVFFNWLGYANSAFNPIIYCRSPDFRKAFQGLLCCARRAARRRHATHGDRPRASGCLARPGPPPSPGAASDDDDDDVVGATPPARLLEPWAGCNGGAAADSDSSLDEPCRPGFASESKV
Compound = Cn1cc(C(=O)N2CCn3nc(C(O)CO)cc3C2)c(=O)[nH]c1=O (stereo not shown); value = ≥ 100 µM
Compound = Cc1noc2c(NCCc3ccccn3)cc(-c3cccnc3)nc12; value = ≥ 100 µM
Compound = COc1ccccc1N1CCN(c2nc3c(C)cccn3c(=O)c2C=O)CC1; value = ≥ 100 µM
Compound = CNCc1ccc(CSCCN/C(=N/CC(O)c2ccc(O)cc2)N[S+](C)(=O)[O-])o1 (stereo not shown); value = 11.2 µM
Compound = COc1ccccc1N1CCN([C@@H]2[C@H](O)[C@H](CO)O[C@@H]2CN(Cc2ccc(F)cc2)Cc2ccc(F)cc2)CC1; value = 1.58 µM
Compound = COc1ccccc1N1CCN(c2ncccc2CNC(C)Cn2ccnc2)CC1 (stereo not shown); value = ≥ 100 µM
Compound = COc1ccccc1-c1n[nH]c2ncc(-c3cccc(F)c3)nc12; value = ≥ 100 µM
Compound = Cc1ccc(C(=O)N2CCN(c3cccc(Cl)c3)CC2)s1; value = ≥ 100 µM
Compound = C[C@@H](O)[C@H](NC(=O)[C@@H]1CSSC[C@H](NC(=O)[C@H](N)Cc2ccccc2)C(=O)N[C@@H](Cc2ccc(O)cc2)C(=O)N[C@H](Cc2c[nH]c3ccccc23)C(=O)N[C@@H](CCCCN)C(=O)N1)C(N)=O; value = ≥ 100 µM
Compound = COc1ccccc1-c1nc(N2CCOCC2)cc2c1CN(Cc1cnn(C)c1)C2=O; value = ≥ 100 µM
Compound = O=C(CCc1ccccc1)Nc1ccc([C@@H](O)[C@H]2COCC(=O)N2Cc2ccccc2F)cc1; value = ≥ 100 µM

For quick reference, copied from above (sample 1):
Compound = Nc1ncnc2c1ncn2C1CCCO1 (stereo not shown); value = 90.2 % of DMSO
Compound = C[C@]12CCC(=O)C=C1CC[C@@H]1[C@@H]2[C@@H](O)C[C@@]2(C)[C@H]1CC[C@]2(O)C(=O)CO; value = 64.7 % of DMSO
Compound = Cc1c(N)c(=O)n(-c2ccccc2)n1C; value = 103 % of DMSO
